Measured values of several laboratories.
Numbered parts are unrelated; each lists some results of a single study. Changes are numbered by the printed parent chain.

Study 1
Target: RNA binding protein fox-1 homolog 2, RRM domain, GST-SBP tag (RBFOX2, Homo sapiens, UniProt O43251-10, residues 100-194)
Technique: RNA Bind-n-Seq
Molecule type: RNA
Sample: in vitro
Tested at: 365 nM
Setting: natural RNA segment, single round, ends assumed
Relative to: no-protein control
Direction: higher = stronger binding
Measurement: RBNS enrichment (R)
Shared flanks, not repeated: GGGAGUUCUACAGUCCGACGAUC … UGGAAUUCUCGGGUGCCAA
Target sequence (chain): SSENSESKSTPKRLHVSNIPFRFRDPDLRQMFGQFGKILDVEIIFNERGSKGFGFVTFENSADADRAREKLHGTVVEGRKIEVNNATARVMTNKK
Oligonucleotide = GGUUUCCAAUCCAGUGUGGACAGCAAAUGAAUGCUAUGCAGGCAUGCAGAUGAGAUCUGUACUAUAGUCUACAAUUUGUAUCCUGUCUCUCCCACCACCCCCGGCAGUGU; value = 0.481
Oligonucleotide = CCUCUGGCAUGGCUUUCCUUUCCCAUCGCCUUCGGAGGCCAUUUUGUCUUGAAGUCAAUGCAUGCUCGUGCUGUUCGACAGUAACCUACUCUGCCUUCUCCACCUCCGAG; value = 7.3
Oligonucleotide = ACUAUAGGUAAUAACUCUUAGAGAAAUUAAUUUAAUAUUAGAAUUUCUAUUAUGAAUCAUGUGAAAGCAUGACAUUCGUUCACAAUAGCACUAUUUUAAAUAAAUUAUAA; value = 1.62
Oligonucleotide = ACUUCAUAUUGAGAAUAGAAGACGUAGAAAUCAGAUGGAUUUCCAAAGUGGCCAAACUUUUCAACUGUAAUUUUAUAAAUGAUACUACACUGAUAUAGCCAAUUAGAUUU; value = 0.35
Oligonucleotide = UUGAGUGUGAAUGCAGCAGGCUCUCUUGUUUCCGAGGUGCUGCUUUUGCAGGUGACCUGGUUACUUAGCUAGGAUUGGUGAUUUGUACUGCUUUAUGGUCAUUUGAAGGG; value = 0.996
Oligonucleotide = UUUCCUCAUCUAUGAAAUGAAGAUUGUAGUUUUUAUUUCAUAGAGUCAUGAAGAUUGAGUUAAUCUCUGAAAUAUCCACACAGUGUUGUCACUCAGGAAUGAUUUGGAAU; value = 0.349
Oligonucleotide = AAGCACAUUUUACCAUUGCUAUUGGGAGGAAGCAGAAGGCAGAUUGGAAAGAACAGCGAGUAAGUGCAAGUUGUGCUCCUUCCUUUUCCCUACCUGGUACCCUCCCUGGG; value = 0.54
Oligonucleotide = AAUACUAUAUUCCGUGUUUUGAGUGACAAGUUUCGAAAAAUAAAAACACUGUAUUUUUAAAAGGGAAAUGCACUUAAAUGAAAACAGUUAUUACAAAAGUUAAGAUUUAA; value = 0.452
Oligonucleotide = ACUGGCCACCCCCUGCUUCCCAGAGUGAAACCUUGUGCCUGGUGACCAAAGUCCCUCCAAAGUGCUCUUCCUUCUGGGUUAUUCAAGCCAAAUAUCUGGGUUUCCCCCUC; value = 0.36
Oligonucleotide = GGUGAGACAUAUUCUCCAUAAAGCUACUGUAGUAGAAUUCAUUCUGGGCAAACACUGAAAAAAGUGCCUUACAGUAUUUCUGCUCAUGAAAGAGUUUCACUAUUUUGGAU; value = 0.38
Oligonucleotide = GGUGAAGGUGUGUUGUCCUACAUAGAACGGUCCCUUCAGUUACCAUUCUGAUUGCUCUAUGCUGCUUUCCUCCUCUUAAAGUUUCAUGAGCUCUUGGGUUAAAUGGUUUG; value = 0.458
Oligonucleotide = CCUAUACAAAUUUCUUAAAUUGUUAGGAUCAAAGUUGAUUAUCACAGUAGUUAAAAAAUAAUUUCAUGGCGGGGCGCCAUGGCUCAUGCCUGUAAUCCUAGCACUUUGGG; value = 0.568

Study 2
Target: Centromere-binding protein 1, full length, N-terminal tag (CBF1, Saccharomyces cerevisiae, UniProt P17106, residues 1-351)
Sequence of UniProt P17106 (whole entry, looked up): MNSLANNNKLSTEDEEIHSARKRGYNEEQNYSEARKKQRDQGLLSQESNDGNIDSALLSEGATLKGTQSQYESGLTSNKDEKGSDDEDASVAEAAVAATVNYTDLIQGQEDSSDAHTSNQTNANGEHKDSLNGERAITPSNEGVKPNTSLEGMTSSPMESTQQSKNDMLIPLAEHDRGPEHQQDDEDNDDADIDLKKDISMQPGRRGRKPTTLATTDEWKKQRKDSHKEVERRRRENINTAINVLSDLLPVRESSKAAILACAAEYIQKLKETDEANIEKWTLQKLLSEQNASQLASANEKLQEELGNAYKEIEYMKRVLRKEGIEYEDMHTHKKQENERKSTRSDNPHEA
Technique: protein-binding microarray
Molecule type: double-stranded DNA, one strand shown
Sample: in vitro
Tested at: 0.8 µM
Setting: whole 60-bp probe, no competitor
Direction: higher = stronger binding
Measurement: fluorescence intensity
Shared flanks, not repeated: … GTCTTGATTCGCTTGACGCTGCTG
Oligonucleotide = GAATTATGCAAGCCTGACGTGGCCTGAGAATATTAG; value = 542 a.u.
Oligonucleotide = GAAAGAATTAAGCCGCACGTGCTCGCCGCAGATTAG; value = 11400 a.u.
Oligonucleotide = GAAGGCCATAAACGCGACGTGCTACCATTTTCGTAG; value = 613 a.u.
Oligonucleotide = GAAACGAGTTGCATGCACGCGTTCATGCCCGTATAG; value = 600 a.u.
Oligonucleotide = CTACCCTTTAAGCACCACATGGAACTCGACTGCTTC; value = 576 a.u.
Oligonucleotide = GAACCCTCTCCGTGGCGGGTGACCTCGGGCGCATAG; value = 511 a.u.
Oligonucleotide = CTATGGTTTCTCCATCACCCATTTTTCATTTCATTC; value = 993 a.u.
Oligonucleotide = GAAAAAGTTTCAAGTCACGTTCATTTTCACACCTAG; value = 2250 a.u.
Oligonucleotide = GAATGCGGATGCTATGTCACGTTGAATTAGACCTAG; value = 1150 a.u.
Oligonucleotide = GAAAATCCCAACAATTACATCAGAATCCACACATAG; value = 543 a.u.
Oligonucleotide = TGTACGAAGCTATCAAATATATCTATAGTAGTTAGG; value = 525 a.u.
Oligonucleotide = GAAATTGTACCTGATCATGCTAGACAAATAACGTAG; value = 638 a.u.
Oligonucleotide = CCTAACTACTATAGTGATCTCAGATAGCTTCGTACA; value = 556 a.u.
Oligonucleotide = GAATCTGCATAATGTCACCTTTTCTTTTTTTTTTAG; value = 557 a.u.
Oligonucleotide = GAAAGAAATGAAAACCCCGTGGTTATAAATTAGTAG; value = 1390 a.u.
Oligonucleotide = CTATTTTGTATAAATCACGGAAGGGATGATTTATTC; value = 597 a.u.
Oligonucleotide = CTACAAATAAAACATCATCACAATGTCTAGATTTTC; value = 510 a.u.
Oligonucleotide = CTAATTACGTATTTTCTGATGTTGAGGAATCTGTTC; value = 562 a.u.
Oligonucleotide = GAAATTACGACACCATGTCTGATGCATTTTAGATAG; value = 530 a.u.
Oligonucleotide = GAAGGTGTTAGTATTCTCATCACGATTAACGAATAG; value = 649 a.u.
Oligonucleotide = GAATGTGCTACAGCCGTGGTGGTTAACCCCCTTTAG; value = 478 a.u.
Oligonucleotide = CTAGGAACAATACCTGATGTGGCGGAGGTGTCTTTC; value = 500 a.u.
Oligonucleotide = CTAGCCGTTCAATGTCACGTGACACAAAGTTGTTTC; value = 51400 a.u.
Oligonucleotide = GAACATTTTGCTGGTGATGGCATTGCATCTGAGTAG; value = 520 a.u.
Oligonucleotide = CCTAACTACTATATTACCGTGTCATAGCTTCGTACA; value = 551 a.u.

Study 3
Target: Fragile X messenger ribonucleoprotein 1, C-terminal low-complexity region (Fmr1, Mus musculus, UniProt P35922)
Technique: RNA Bind-n-Seq
Molecule type: RNA
Sample: in vitro
Tested at: 200 nM
Setting: whole 134-nt RNA, ends assumed
Together with: 150 mM LiCl
Relative to: input library
Direction: higher = stronger binding
Measurement: log2 enrichment
Library: 7-deaza-guanosine replaces G
Shared flanks, not repeated: GGGAGUUCUACAGUCCGACGAUC … UGGAAUUCUCGGGUGUCAAGG
Oligonucleotide = CUGUGCUACACAUCGUAUGUACCGAAUCGGGGUUUUUUUGGGGUUUGGGGUUUUUUUGGGGAAAGUAUUAUGUUACGCCGUUCGGAUCUG; value = 0.524
Oligonucleotide = CAAGUCCUGUGCUACACAUCGUAUGUACCGAAUCGGUUUGGUUUGGGGUUUGGGGAAAGUAUUAUGUUACGCCGUUCGGAUCUGCACUUC; value = -1.46
Oligonucleotide = UGCGGGACAAAGAAGUGGCCAAUCGAUACUUUACCACUGUCUGUGUGAGAUUACUGCUUGAGAGCAAAGAAAAGAAGAUCAGGGAAUUCA; value = -0.0632
Oligonucleotide = CCUGUGCUACACAUCGUAUGUACCGAAUCGGGAAAAAAAGGAAAAAAAGGGGAAAAAAAGGAAAGUAUUAUGUUACGCCGUUCGGAUCUG; value = -0.0238
Oligonucleotide = AAGUCCUGUGCUACACAUCGUAUGUACCGAAUCGGAAAGGGGAAAGGGGAAAGGGGAAAGUAUUAUGUUACGCCGUUCGGAUCUGCACUU; value = 0.557
Oligonucleotide = CCUGUGCUACACAUCGUAUGUACCGAAUCGGGGUGGGGAAAAAAAGGGGUUUUUUUGGGGAAAGUAUUAUGUUACGCCGUUCGGAUCUGC; value = -1.89
Oligonucleotide = UCUGUUUCCUCUGCCAGUGGCAAUGCAACACCUAACACUCCUGGGGAUGAGUCUCCCUGUGGUAUUAUUAUUCCUCAUGAAAACUCACCA; value = 0.553
Oligonucleotide = CAAGUCCUGUGCUACACAUCGUAUGUACCGAAUCGGGUUUUUGGGUGGGUUUGGGAAAGUAUUAUGUUACGCCGUUCGGAUCUGCACUUC; value = -1.37
Oligonucleotide = CAAGUCCUGUGCUACACAUCGUAUGUACCGAAUCGGUUUGGGGUUUGGGGUUUGGGAAAGUAUUAUGUUACGCCGUUCGGAUCUGCACUU; value = -1.98
Oligonucleotide = AGUCCUGUGCUACACAUCGUAUGUACCGAAUCAAACCCAAACCCCCCCAAACCCAAAAAAGUAUUAUGUUACGCCGUUCGGAUCUGCACU; value = 0.473
Oligonucleotide = AGUCCUGUGCUACACAUCGUAUGUACCGAAUCAAACCCCCCCAAACCCAAAUUUAAAAAAGUAUUAUGUUACGCCGUUCGGAUCUGCACU; value = 1

Study 4
Target: CCNF, cyclin fold, Cln2 fusion (human)
Technique: yeast growth competition, sequencing
Sample: yeast
Setting: strong parent motif
Relative to: not given
Direction: higher = stronger binding
Measurement: normalised enrichment score
Starting sequence: RBL1 docking peptide (human); GSAKRRLFGEDPP; partner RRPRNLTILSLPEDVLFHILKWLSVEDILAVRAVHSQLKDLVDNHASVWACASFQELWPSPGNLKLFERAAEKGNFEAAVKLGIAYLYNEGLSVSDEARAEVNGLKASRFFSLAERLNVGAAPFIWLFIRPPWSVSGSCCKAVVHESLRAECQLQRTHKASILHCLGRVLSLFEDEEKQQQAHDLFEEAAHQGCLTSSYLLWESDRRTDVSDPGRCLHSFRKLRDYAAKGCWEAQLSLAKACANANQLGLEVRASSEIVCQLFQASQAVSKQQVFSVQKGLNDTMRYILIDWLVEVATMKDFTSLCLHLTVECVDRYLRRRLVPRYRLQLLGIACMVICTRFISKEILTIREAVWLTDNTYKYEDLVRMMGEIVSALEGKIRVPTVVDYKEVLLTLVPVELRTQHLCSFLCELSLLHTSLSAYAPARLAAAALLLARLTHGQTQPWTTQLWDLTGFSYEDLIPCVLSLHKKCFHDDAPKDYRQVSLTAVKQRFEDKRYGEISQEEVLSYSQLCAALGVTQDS
Change = S2I; value = 5.46
Change = L7Q; value = 0.739
Change = G1E; value = 7.14
Change = R5W; value = 0.486
Change = E10M; value = 6.6
Change = E10Y; value = 6.92
Change = R6V; value = 5.54
Change = A3Q; value = 2.11
Change = A3L; value = 4.86
Change = S2D; value = 5.07
Change = P12W; value = 7.42
Change = S2H; value = 7.32
Change = P12D; value = 7.02
Change = L7E; value = -0.138
Change = K4Y; value = 5.53
Change = S2N; value = 7.91
Change = E10Q; value = 6.31
Change = R5K F8L; value = 0.285

Some of these lines once more (study 2):
Oligonucleotide = CTAATTACGTATTTTCTGATGTTGAGGAATCTGTTC; value = 562 a.u.
Oligonucleotide = GAAATTACGACACCATGTCTGATGCATTTTAGATAG; value = 530 a.u.
Oligonucleotide = GAAGGTGTTAGTATTCTCATCACGATTAACGAATAG; value = 649 a.u.
Oligonucleotide = GAATGTGCTACAGCCGTGGTGGTTAACCCCCTTTAG; value = 478 a.u.
Oligonucleotide = CTAGGAACAATACCTGATGTGGCGGAGGTGTCTTTC; value = 500 a.u.
Oligonucleotide = CTAGCCGTTCAATGTCACGTGACACAAAGTTGTTTC; value = 51400 a.u.
Oligonucleotide = GAACATTTTGCTGGTGATGGCATTGCATCTGAGTAG; value = 520 a.u.
Oligonucleotide = CCTAACTACTATATTACCGTGTCATAGCTTCGTACA; value = 551 a.u.
